Assay results of several laboratories.
Lines come from different studies, so protocols differ. ± marks the error that the study gave. Values after ≈ are worked out from the molar mass of the structure shown.
Chain of UniProt P30874 (whole entry, looked up): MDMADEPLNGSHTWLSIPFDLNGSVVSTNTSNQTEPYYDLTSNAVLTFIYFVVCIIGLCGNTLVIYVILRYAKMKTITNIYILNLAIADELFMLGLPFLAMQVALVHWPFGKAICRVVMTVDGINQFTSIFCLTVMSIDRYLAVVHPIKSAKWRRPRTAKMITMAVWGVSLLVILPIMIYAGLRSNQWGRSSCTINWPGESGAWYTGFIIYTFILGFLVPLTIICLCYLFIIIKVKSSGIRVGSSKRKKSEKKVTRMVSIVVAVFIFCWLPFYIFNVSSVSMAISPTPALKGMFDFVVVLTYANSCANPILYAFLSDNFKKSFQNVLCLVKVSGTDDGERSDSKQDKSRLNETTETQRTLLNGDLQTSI
Chain of UniProt Q6JQN1 (whole entry, looked up): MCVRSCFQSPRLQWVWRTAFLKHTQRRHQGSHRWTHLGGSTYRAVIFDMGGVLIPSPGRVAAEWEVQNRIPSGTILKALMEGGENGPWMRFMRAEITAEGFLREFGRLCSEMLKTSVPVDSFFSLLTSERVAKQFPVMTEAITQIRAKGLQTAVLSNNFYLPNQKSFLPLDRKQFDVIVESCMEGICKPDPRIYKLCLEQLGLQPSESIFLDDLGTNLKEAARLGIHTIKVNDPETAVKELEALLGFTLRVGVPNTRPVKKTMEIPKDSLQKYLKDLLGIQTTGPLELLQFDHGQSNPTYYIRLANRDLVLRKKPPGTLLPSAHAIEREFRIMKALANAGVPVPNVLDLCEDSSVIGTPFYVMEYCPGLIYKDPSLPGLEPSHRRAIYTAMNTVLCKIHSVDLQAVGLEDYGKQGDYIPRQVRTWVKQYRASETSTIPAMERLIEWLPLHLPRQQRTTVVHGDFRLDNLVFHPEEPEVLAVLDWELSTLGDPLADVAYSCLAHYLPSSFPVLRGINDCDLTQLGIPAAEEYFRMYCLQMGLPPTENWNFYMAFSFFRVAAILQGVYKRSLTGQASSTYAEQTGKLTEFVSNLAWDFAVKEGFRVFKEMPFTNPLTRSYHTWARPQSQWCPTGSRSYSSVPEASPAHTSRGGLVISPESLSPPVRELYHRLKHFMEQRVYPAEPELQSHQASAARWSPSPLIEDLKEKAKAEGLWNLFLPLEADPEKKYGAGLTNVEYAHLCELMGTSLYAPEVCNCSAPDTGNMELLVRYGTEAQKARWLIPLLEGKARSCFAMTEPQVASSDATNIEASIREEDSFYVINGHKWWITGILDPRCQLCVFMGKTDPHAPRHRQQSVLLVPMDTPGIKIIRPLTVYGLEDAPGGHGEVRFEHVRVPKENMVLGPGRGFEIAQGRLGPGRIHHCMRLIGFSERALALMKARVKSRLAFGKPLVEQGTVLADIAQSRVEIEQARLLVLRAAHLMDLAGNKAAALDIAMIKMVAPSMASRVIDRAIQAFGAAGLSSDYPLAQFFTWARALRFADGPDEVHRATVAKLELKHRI
Chain of UniProt P48730 (whole entry, looked up): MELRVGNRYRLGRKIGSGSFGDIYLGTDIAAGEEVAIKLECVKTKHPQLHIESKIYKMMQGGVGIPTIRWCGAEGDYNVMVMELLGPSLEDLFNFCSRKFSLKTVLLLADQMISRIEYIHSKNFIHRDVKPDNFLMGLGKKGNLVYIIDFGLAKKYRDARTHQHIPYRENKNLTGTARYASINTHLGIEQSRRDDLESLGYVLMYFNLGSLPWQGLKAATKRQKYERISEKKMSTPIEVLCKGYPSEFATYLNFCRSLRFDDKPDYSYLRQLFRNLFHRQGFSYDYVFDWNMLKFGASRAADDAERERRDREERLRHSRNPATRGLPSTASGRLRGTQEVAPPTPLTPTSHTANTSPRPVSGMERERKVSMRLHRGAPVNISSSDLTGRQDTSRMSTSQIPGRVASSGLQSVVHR

| Compound | target or system | test | test system | conditions | scale | quantity | result |
| --- | --- | --- | --- | --- | --- | --- | --- |
| COc1ccc(N2C(=O)N(c3c(C)cccc3Cl)Cc3cnc(Nc4ccc(C5CCN(C)CC5)cc4OC)nc32)nc1 | CSNK1D (Homo sapiens, UniProt P48730) | kinase activity, inhibitor | – | 0.5 µM, kinase CK1-DELTA | – | inhibition | 4.72% |
| Nc1ncnc2c1ncn2[C@@H]1O[C@@H]2COP(=O)(O)O[C@H]3[C@@H](O)[C@H](n4cnc5c(=O)[nH]cnc54)O[C@@H]3COP(=O)(O)O[C@H]2[C@H]1O | West Nile virus | RNA sequencing Reactome analysis, item: G2/M Checkpoints (R-HSA-69481) | HFF-1 | concentration not given, upregulated pathways, added: West Nile virus infection | reference: WNV-infected without compound | fold enrichment | 3.68 |
| N#Cc1ccc2[nH]c(O)c(-c3ccc(CN4CCOCC4)cn3)c2c1 | Aspergillus fumigatus | – | – | 20 µM | reference: untreated | metabolic activity | ≥ 80% |
| Cc1c2c(nn1C)CSCc1cc(n(C)n1)CSc1cc(c3ccccc3c1)OCCCc1c(C(=O)O)n(C)c3c-2c(Cl)ccc13 | Staphylococcus aureus | label-free proteomics, item: pyrB | SA113 | concentration not given | reference: untreated | protein level fold change | 0.0396 |
| N=C(N)NCCC[C@H](NC(=O)[C@H](Cc1c[nH]c2ccccc12)NC(=O)[C@H](CCCNC(=N)N)NC(=O)[C@H](Cc1c[nH]c2ccccc12)NC(=O)[C@H](Cc1c[nH]c2ccccc12)NC(=O)[C@H](Cc1c[nH]c2ccccc12)NC(=O)[C@H](CCCNC(=N)N)NC(=O)[C@H](Cc1c[nH]c2ccccc12)NC(=O)[C@H](CCCNC(=N)N)NC(=O)CN)C(N)=O | Candida albicans | broth microdilution | CGMCC 2.209, RPMI 1640-MOPS | 48 h, 30 °C, added: NH4Cl 6 µM | – | MIC | 4 µM (≈ 6.52 µg/mL) |
| CO[C@H]1C[C@@H]2CC[C@@H](C)[C@@](O)(O2)C(=O)C(=O)N2CCCC[C@H]2C(=O)O[C@H]([C@H](C)C[C@@H]2CC[C@@H](OC(=O)NCCOCCOCCOCCOCCOCCOCCOCCOCCC(=O)N3CCc4cc(Cn5nc(-c6ccc7oc(N)nc7c6)c6c(N)ncnc65)ccc4C3)[C@H](OC)C2)C[C@@H](O)[C@H](C)/C=C(\C)[C@@H](O)[C@@H](OC)C(=O)[C@H](C)C[C@H](C)/C=C/C=C/C=C/1C | – | phase 1 dose escalation | advanced solid tumour patients | intravenous, 8 mg weekly, grade ≥3 | – | any TEAE incidence | 68.8% |
| CC[C@H](CC[C@@H](C)[C@H]1CC[C@H]2[C@@H]3CCC4=CC(=O)CC[C@]4(C)[C@H]3CC[C@]12C)C(C)C | Leishmania mexicana | propidium iodide flow cytometry | promastigotes | concentration not given, 48 h | – | antileishmanial activity | inactive |
| CC[C@H](C)[C@@H]1NC(=O)[C@@H]2CCCN2C(=O)[C@H](CC(C)C)NC(=O)[C@H](CC(C)C)NC(=O)CNC(=O)[C@@H](NC(=O)[C@@H](NC(=O)[C@H](CC(=O)O)NC(=O)CNC(=O)[C@@H](NC(=O)[C@H](C)NC(=O)CNC(=O)[C@H](CCCCN)NC(=O)[C@H](CC(C)C)NC(=O)[C@H](CC(C)C)NC(=O)[C@H](CCCCN)NC(=O)CNC(=O)[C@@H](NC(=O)[C@@H](N)CC(C)C)C(C)C)C(C)C)C(C)C)CSSC[C@@H](C(=O)O)NC1=O | – | RNA-seq, item: Tssk6 | mouse, traumatic brain injury model, frontal cortex and hippocampus | dose not given | reference: TBI alone | log2 fold change | -2.06 |
| Cc1c(NC(=O)c2ccc(C(C)(C)C)cc2)cccc1-c1cn(C)c(=O)c(Nc2ccc(C(=O)N3CCOCC3)cc2)n1 | murine hepatitis virus | viral replication, nanoluciferase reporter | DBT | 1 µM, 10 h | reference: DMSO vehicle | inhibition | 19% |
| CS(=O)(=O)CCCn1c(Cn2c(=O)n(CC(F)(F)F)c3ccncc32)cc2cc(Cl)ccc21 | respiratory syncytial virus | RT-qPCR | hospitalized infants 1-24 months, nasal swab | oral, 6, 4.5 or 3 mg/kg daily, day 4, mid dose by age cohort | reference: placebo | LS mean difference vs placebo | -1.13 log10 copies/mL |
| CCOc1cc(N2CCC(O)CC2)ccc1Nc1ncc2c(n1)N(C)c1ccccc1C(=O)N2C | murine hepatitis virus | viral replication, nanoluciferase reporter | DBT | 1 µM | reference: DMSO vehicle | inhibition | 9% |
| COC(=O)c1ccc2c(ccc3oc([N+](=O)[O-])cc32)c1 | Enterobacter cloacae | REMA | – | – | – | MIC90 | > 32 µg/mL |
| CCOC(=O)c1c(/C(C#N)=C\N)c2ccc(Cl)c(Cl)c2n1C | murine hepatitis virus | viral replication, nanoluciferase reporter | DBT | 1 µM | reference: DMSO vehicle | inhibition | -15% |
| C[C@H](C(=O)N[C@H]1COc2ccccc2[C@@H]1S(C)(=O)=O)c1ccc(F)cc1 | L-type calcium channel, rat, Phenylalkylamine site | binding | – | 10 µM, Eurofins selectivity panel | – | inhibition | 0% |
| CNCC(=O)N[C@@H](CO)C(=O)N[C@H]1[C@H](O)[C@@H](O)[C@H](n2ccc(N)nc2=O)O[C@@H]1C(N)=O | Tobacco mosaic virus | inactivation activity | plant in vivo | – | – | EC50 | 77.4 ± 1.3 µg/mL (≈ 175 µM) |
| COc1cc(CCC[P+](c2ccccc2)(c2ccccc2)c2ccccc2)c(OC)c2c1OCO2.[I-] | HOP-62 | SRB | – | – | – | GI50 | -5.54 log M |
| COC(=O)C1=C(C)NC(C)=C(C(=O)OC(C)(C)CN(C)CCC(c2ccccc2)c2ccccc2)C1c1cccc([N+](=O)[O-])c1 (centres unmarked) | Aspergillus fumigatus | Alamar blue | – | 20 µM, 48 h | – | metabolic activity | 100% |
| CC[C@H](C)[C@H](NC(=O)[C@H](C)NC(=O)[C@H](CCCCN)NC(=O)[C@H](CC(C)C)NC(=O)[C@H](C)NC(=O)[C@@H](NC(=O)[C@H](Cc1c[nH]cn1)NC(=O)[C@H](CC(C)C)NC(=O)[C@@H](NC(=O)[C@@H](NC(=O)[C@H](CCCCN)NC(=O)[C@H](C)NC(=O)[C@H](C)NC(=O)[C@H](CO)NC(=O)[C@H](CCCCN)NC(=O)[C@H](Cc1ccccc1)NC(=O)[C@@H](NC(=O)[C@H](CCCCN)NC(=O)[C@H](CC(C)C)NC(=O)[C@H](Cc1ccccc1)NC(=O)[C@H](CO)NC(=O)[C@H](CCCCN)NC(=O)[C@H](Cc1c[nH]c2ccccc12)NC(=O)[C@H](CCCCN)NC(C)=O)[C@@H](C)O)[C@@H](C)O)C(C)C)[C@@H](C)O)C(=O)N[C@@H](CO)C(=O)N[C@@H](CO)C(N)=O | Klebsiella pneumoniae | – | ATCC 1705 | – | – | MIC range | 16 µg/mL (≈ 5.45 µM) |

| Compound | target or system | test | test system | conditions | scale | quantity | result |
| --- | --- | --- | --- | --- | --- | --- | --- |
| C#Cc1ccc(O)c(C=NNC(=O)c2ccc(Br)cc2)c1 | Aspergillus fumigatus | – | 293 | unit not given, added: voriconazole | lower = more synergy | FICI | 2 |
| CC(=O)NCC(=O)N1[C@@H]2CC[C@H]1c1ccc(Nc3ncc(C(F)(F)F)c(NC4CCC4)n3)cc12 | murine hepatitis virus | viral replication, nanoluciferase reporter | DBT | 1 µM | reference: DMSO vehicle | inhibition | 58% |
| CC(C)[C@H](NC(=O)[C@H](CCCNC(=N)N)NC(=O)[C@H](Cc1c[nH]c2ccccc12)NC(=O)[C@H](CCCNC(=N)N)NC(=O)[C@H](Cc1c[nH]c2ccccc12)NC(=O)[C@H](Cc1c[nH]c2ccccc12)NC(=O)[C@H](Cc1c[nH]c2ccccc12)NC(=O)[C@H](CCCNC(=N)N)NC(=O)[C@H](Cc1c[nH]c2ccccc12)NC(=O)[C@H](CCCNC(=N)N)NC(=O)CN)C(N)=O | Candida parapsilosis | broth microdilution | CGMCC 2.399, RPMI 1640-MOPS | 48 h, 30 °C | – | MIC | 8 µM (≈ 13.8 µg/mL) |
| CCCC(CCC)C(=O)O | Artemia franciscana | LC-MS/MS metabolomics, item: 1-aminocyclopropanecarboxylic acid | larvae | concentration not given, 24 h, LC1 concentration | reference: vehicle | fold change | 1.95 |
| COc1cc2c(Oc3ccc4[nH]c(C)cc4c3F)ccnc2cc1OCC1(N)CC1 | – | – | paediatric recurrent refractory sarcoma | 10 mg | – | grade 1 or 2 Tinnitus | 0% |
| C[C@H]1CN(c2n[nH]c3nc(N[C@H]4CC[C@H](NS(=O)(=O)CCC(F)(F)F)CC4)ncc23)CCO1 | ACAD10 (Homo sapiens, UniProt Q6JQN1) | inhibitor, Kinobeads competition profiling | – | 0.032 µM | reference: vehicle | relative abundance | 1.21 |
| N=C(N)NCCC[C@H](NC(=O)CN)C(=O)N[C@@H](Cc1c[nH]c2ccccc12)C(=O)N[C@@H](CCCNC(=N)N)C(=O)N[C@@H](Cc1c[nH]c2ccccc12)C(=O)N[C@@H](Cc1c[nH]c2ccccc12)C(=O)N[C@@H](Cc1c[nH]c2ccccc12)C(=O)N[C@@H](CCCNC(=N)N)C(=O)N[C@@H](Cc1c[nH]c2ccccc12)C(=O)N[C@@H](CCCNC(=N)N)C(=O)N[C@@H](Cc1c[nH]c2ccccc12)C(N)=O | Candida albicans | broth microdilution | CGMCC 2.209, RPMI 1640-MOPS | 48 h, 30 °C, added: NH4Cl 6 µM | – | MIC | 8 µM (≈ 14.5 µg/mL) |
| Cc1cc(Nc2nccc(C)n2)cc(-c2cnc([C@@]3(O)CC[C@H](C(=O)O)C(C)(C)C3)s2)c1 | murine hepatitis virus | viral replication, nanoluciferase reporter | DBT | 1 µM, 10 h | reference: DMSO vehicle | inhibition | -23% |
| CC(=O)O[C@H]1C[C@H](O[C@H]2[C@@H](O)C[C@H](O[C@H]3[C@@H](O)C[C@H](O[C@H]4CC[C@@]5(C)[C@H](CC[C@@H]6[C@@H]5C[C@@H](O)[C@]5(C)[C@@H](C7=CC(=O)OC7)CC[C@]65O)C4)O[C@@H]3C)O[C@@H]2C)O[C@H](C)[C@H]1O[C@@H]1O[C@H](CO)[C@@H](O)[C@H](O)[C@H]1O | human alphaherpesvirus 1 | live-cell GFP imaging | primary human fibroblasts, K26 GFP | – | – | IC50 | 80 nM |
| C[C@@H](O)[C@@H](CO)NC(=O)[C@@H](CCCNC(=N)N)NC(=O)[C@@H]1CCCN1C(=O)[C@@H]1CSSC[C@H](NC(=O)[C@H](Cc2ccccc2)NC(=O)CN2CCN(CC(=O)O)CCN(CC(=O)O)CCN(CC(=O)O)CC2)C(=O)N[C@@H](Cc2ccc(O)cc2)C(=O)N[C@@H](Cc2ccccc2)C(=O)N[C@@H](CCC(N)=O)C(=O)N[C@@H](CC(N)=O)C(=O)N1 [gallium-68 labelled] | – | – | healthy Wistar rat, pancreas | intravenous, 8 MBq, 120 min, individual animals | – | tissue uptake | 0.02 %ID/g |
| COc1c(CCC[P+](c2ccccc2)(c2ccccc2)c2ccccc2)cc2c(c1OC)OCO2.[I-] | EKVX | SRB | – | – | – | GI50 | -5.41 log M |
| O=[N+]([O-])c1cc2cc3ccc4oc([N+](=O)[O-])cc4c3cc2o1 | Mycobacterium avium subsp. hominissuis | REMA | ATCC 25291 | – | – | MIC90 | 0.125 µg/mL (≈ 0.419 µM) |
| CC1=C(C#N)C(c2ccc3[nH]nc(C)c3c2)C(C#N)=C(C)N1 | murine hepatitis virus | viral replication, nanoluciferase reporter | DBT | 1 µM, 10 h | reference: DMSO vehicle | inhibition | 4% |
| CC[C@H](C)[C@H](NC(=O)[C@H](Cc1ccccc1)NC(=O)[C@H](CCC(=O)O)NC(=O)[C@H](CCCNC(=N)N)NC(=O)[C@H](C)NC(=O)[C@H](C)NC(=O)[C@H](CCC(N)=O)NC(=O)[C@H](CCC(=O)O)NC(=O)[C@H](CCC(=O)O)NC(=O)[C@H](CC(C)C)NC(=O)[C@H](Cc1ccc(O)cc1)NC(=O)[C@H](CO)NC(=O)[C@H](CO)NC(=O)[C@@H](NC(=O)[C@H](CC(=O)O)NC(=O)[C@H](CO)NC(=O)[C@@H](NC(=O)[C@H](Cc1ccccc1)NC(=O)[C@@H](NC(=O)CNC(=O)[C@H](CCC(=O)O)NC(=O)[C@H](C)NC(=O)CCc1c[nH]cn1)[C@@H](C)O)[C@@H](C)O)C(C)C)C(=O)N[C@@H](C)C(=O)N[C@@H](Cc1c[nH]c2ccccc12)C(=O)N[C@@H](CC(C)C)C(=O)N[C@H](C(=O)N[C@@H](CCCNC(=N)N)C(=O)NCC(=O)N[C@@H](CCCNC(=N)N)C(=O)N[C@@H](CCCCNC(=O)COCCOCCNC(=O)COCCOCCNC(=O)CC[C@H](NC(=O)CCCCCCCCCCCCCCCCC(=O)O)C(=O)O)C(=O)NCC(=O)NCC(=O)N[C@@H](CO)C(=O)N[C@@H](CCCCNc1c(NCCCCCN(O)C(=O)CCC(=O)NCCCCCN(O)C(=O)CCC(=O)NCCCCCN(O)C(C)=O)c(=O)c1=O)C(=O)O)C(C)C [zirconium-89 labelled] | – | – | rat, lung | iv, 3 nmol/kg, 168 h, ex vivo | – | tissue uptake | 1.02 %ID/g |
| Cc1c([N+](=O)[O-])oc2ccc3ccccc3c12 | Mycobacterium avium subsp. hominissuis | REMA | ATCC 25291 | – | – | MIC90 | 4 µg/mL (≈ 17.6 µM) |
| COc1cc(Nc2ncc(F)c(Nc3ccc4c(n3)NC(=O)C(C)(C)O4)n2)cc(OC)c1OC | SSTR2 (Homo sapiens, UniProt P30874) | – | – | – | – | IC50 | > 10000 nM |
| Nc1ncnc2c([C@@H]3N[C@H](CO)[C@@H](O)[C@H]3O)c[nH]c12 | Measles morbillivirus | viral replication | Vero 76, Chicago | 9.5 µM | – | inhibition | 63.5% |
